Measured values collected from several papers.
Lines come from different studies, so protocols differ. ± marks the error that the study gave.
BCHE: Cholinesterase (BCHE, Equus caballus, UniProt P81908)
Sequence of UniProt Q00534 (whole entry, looked up): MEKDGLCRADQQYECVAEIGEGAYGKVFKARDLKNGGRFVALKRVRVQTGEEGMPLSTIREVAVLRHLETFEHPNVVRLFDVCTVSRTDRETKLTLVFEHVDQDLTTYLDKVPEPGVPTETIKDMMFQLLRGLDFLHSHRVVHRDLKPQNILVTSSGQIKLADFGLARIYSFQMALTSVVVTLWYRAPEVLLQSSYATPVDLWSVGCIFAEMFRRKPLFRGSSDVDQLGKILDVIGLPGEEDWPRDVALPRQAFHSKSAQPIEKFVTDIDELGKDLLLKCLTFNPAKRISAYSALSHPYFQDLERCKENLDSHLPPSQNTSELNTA
Sequence of UniProt P81908 (whole entry, looked up): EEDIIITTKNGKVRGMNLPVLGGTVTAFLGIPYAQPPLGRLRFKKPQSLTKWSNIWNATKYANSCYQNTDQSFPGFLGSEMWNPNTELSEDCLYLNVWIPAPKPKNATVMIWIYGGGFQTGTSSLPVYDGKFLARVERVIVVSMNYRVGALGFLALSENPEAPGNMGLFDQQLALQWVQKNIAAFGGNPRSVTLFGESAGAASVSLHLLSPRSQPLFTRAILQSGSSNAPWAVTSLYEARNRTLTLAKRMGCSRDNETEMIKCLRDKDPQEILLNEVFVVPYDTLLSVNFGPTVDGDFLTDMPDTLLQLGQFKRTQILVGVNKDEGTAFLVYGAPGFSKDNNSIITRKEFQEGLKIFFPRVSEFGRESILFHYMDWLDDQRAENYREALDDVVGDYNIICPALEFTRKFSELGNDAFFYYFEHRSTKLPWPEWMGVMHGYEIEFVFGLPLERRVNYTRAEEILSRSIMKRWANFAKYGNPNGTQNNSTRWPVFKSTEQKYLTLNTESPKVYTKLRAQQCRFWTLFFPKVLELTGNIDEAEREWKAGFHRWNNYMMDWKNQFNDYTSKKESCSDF
Sequence of UniProt P48145 (whole entry, looked up): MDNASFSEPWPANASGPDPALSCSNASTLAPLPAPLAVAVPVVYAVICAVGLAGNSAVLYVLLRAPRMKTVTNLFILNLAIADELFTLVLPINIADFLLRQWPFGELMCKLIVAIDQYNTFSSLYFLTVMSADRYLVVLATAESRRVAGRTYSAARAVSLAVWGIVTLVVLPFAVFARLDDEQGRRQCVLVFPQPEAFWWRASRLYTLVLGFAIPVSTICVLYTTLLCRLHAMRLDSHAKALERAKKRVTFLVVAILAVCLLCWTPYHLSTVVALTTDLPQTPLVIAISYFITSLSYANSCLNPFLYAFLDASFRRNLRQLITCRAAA
Sequence of UniProt P12821 (whole entry, looked up): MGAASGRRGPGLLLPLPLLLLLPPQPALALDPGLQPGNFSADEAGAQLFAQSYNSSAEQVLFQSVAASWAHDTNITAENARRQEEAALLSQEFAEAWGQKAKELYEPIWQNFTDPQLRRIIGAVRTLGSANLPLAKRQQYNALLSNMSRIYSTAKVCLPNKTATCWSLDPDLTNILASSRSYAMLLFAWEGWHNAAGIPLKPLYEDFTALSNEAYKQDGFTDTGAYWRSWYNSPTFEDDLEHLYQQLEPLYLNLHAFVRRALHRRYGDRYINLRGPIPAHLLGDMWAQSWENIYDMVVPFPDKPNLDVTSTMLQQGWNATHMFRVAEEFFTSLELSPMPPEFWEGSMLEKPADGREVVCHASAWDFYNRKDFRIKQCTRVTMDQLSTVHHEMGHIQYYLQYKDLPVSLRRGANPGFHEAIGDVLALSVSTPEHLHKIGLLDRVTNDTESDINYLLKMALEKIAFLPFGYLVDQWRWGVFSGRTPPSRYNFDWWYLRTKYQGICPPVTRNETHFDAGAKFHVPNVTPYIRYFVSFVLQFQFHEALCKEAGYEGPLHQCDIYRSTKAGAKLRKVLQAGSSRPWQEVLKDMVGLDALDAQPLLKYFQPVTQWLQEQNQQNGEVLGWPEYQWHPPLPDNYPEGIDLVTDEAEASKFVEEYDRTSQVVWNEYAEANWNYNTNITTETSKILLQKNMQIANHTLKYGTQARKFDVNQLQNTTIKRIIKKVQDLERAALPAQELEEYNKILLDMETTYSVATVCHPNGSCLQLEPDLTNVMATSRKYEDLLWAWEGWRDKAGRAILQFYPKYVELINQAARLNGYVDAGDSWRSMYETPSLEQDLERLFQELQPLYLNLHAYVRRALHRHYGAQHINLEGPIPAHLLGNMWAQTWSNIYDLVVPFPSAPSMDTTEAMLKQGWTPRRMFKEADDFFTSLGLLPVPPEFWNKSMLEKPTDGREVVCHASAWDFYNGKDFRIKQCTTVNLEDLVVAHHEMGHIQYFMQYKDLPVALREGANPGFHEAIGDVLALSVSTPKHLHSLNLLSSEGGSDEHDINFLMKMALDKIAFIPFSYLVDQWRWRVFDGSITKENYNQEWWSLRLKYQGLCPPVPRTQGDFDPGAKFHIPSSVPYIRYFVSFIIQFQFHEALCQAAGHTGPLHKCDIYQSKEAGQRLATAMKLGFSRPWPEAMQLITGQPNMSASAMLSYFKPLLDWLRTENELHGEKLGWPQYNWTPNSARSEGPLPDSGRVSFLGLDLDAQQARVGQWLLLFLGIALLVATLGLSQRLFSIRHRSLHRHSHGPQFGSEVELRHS
Sequence of UniProt Q9Y5N1 (whole entry, looked up): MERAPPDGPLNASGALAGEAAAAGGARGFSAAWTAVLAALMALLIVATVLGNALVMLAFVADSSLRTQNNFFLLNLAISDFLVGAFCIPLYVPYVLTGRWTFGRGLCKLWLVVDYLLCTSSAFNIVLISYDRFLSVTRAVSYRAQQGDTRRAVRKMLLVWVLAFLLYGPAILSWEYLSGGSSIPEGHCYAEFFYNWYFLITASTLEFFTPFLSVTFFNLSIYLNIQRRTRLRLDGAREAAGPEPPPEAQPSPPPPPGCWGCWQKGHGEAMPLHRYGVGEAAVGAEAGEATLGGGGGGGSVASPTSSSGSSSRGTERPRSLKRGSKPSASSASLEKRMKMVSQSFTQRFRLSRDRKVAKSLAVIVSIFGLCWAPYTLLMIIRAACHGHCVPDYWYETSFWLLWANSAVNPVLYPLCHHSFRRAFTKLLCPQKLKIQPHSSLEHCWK
Sequence of UniProt Q00535 (whole entry, looked up): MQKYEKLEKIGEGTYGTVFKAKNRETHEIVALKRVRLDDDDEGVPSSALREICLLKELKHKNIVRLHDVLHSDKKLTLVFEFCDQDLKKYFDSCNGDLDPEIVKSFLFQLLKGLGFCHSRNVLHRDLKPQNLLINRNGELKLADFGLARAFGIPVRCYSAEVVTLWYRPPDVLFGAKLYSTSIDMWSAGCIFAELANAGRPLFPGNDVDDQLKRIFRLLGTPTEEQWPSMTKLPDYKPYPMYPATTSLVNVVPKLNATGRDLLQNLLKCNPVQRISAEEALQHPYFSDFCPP
Sequence of UniProt P30411 (whole entry, looked up): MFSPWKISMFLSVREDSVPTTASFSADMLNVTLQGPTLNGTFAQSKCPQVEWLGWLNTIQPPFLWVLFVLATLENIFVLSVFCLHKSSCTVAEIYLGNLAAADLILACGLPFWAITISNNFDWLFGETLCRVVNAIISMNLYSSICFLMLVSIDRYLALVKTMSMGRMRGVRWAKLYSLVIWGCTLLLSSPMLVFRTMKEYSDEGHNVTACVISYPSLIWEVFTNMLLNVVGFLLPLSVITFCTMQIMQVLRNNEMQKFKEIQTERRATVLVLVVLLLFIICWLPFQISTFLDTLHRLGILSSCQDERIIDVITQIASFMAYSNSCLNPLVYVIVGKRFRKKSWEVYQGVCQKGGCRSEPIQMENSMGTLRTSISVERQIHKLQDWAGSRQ
Sequence of UniProt Q9NQU5 (whole entry, looked up): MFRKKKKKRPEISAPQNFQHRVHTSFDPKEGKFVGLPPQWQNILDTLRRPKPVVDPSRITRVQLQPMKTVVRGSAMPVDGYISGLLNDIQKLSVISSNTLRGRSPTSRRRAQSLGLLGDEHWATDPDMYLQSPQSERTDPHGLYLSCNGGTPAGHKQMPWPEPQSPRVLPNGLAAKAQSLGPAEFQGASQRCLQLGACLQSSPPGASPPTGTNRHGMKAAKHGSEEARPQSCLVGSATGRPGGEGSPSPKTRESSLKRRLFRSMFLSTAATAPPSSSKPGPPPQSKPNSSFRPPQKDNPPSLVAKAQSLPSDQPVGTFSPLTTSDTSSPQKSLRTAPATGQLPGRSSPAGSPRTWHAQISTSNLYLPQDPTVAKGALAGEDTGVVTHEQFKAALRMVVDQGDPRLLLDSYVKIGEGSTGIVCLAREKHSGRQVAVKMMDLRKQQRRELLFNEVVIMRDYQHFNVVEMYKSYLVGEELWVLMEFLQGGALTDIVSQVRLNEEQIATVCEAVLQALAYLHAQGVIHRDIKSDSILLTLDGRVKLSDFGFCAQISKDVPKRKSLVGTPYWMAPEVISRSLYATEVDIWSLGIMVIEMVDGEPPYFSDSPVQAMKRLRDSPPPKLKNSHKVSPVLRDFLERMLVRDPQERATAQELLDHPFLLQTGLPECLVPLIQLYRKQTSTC
Sequence of UniProt O43318 (whole entry, looked up): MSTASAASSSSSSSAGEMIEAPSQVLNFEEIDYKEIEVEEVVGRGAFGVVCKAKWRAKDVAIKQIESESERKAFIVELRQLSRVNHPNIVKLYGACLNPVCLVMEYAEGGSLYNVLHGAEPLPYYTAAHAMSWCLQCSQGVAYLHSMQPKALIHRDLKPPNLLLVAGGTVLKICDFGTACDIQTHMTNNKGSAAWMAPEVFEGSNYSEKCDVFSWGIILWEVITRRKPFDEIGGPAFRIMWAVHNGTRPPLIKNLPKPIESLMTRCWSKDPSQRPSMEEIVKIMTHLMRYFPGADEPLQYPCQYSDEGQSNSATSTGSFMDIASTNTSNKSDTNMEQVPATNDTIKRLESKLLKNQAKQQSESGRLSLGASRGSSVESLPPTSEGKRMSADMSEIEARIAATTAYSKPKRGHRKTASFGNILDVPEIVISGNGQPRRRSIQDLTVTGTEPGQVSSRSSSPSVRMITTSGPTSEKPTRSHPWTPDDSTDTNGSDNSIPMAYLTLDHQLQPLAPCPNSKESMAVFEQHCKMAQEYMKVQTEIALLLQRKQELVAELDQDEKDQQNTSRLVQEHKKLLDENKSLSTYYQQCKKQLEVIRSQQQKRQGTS

| SMILES | tested on | test | test system | conditions | how to read | measurement | result |
| --- | --- | --- | --- | --- | --- | --- | --- |
| NCC1CCN(Cc2ccccc2)CC1 | BCHE | enzyme activity, inhibitor, Ellman | – | 20 µM | – | inhibition | 40.8% |
| N[C@H](C(=O)N1CCCC1)C1CCN(c2nccc3c(-c4ncc(Cl)cc4Cl)cccc23)CC1 | Peroxisome proliferator-activated receptor gamma (PPARG, Homo sapiens, UniProt P37231) | ligand displacement | – | 10 µM | – | inhibition | 0% |
| CC(C)CC(C(=O)N1CC2(CC1C#N)C(=O)Nc1ccccc12)N(C)C(=O)c1cc2c(F)cc(F)c(F)c2[nH]1 (stereo not shown) | Angiotensin-converting enzyme (ACE, Homo sapiens, UniProt P12821) | enzyme activity, inhibitor | – | – | – | IC50 | > 100 µM |
| CC(C)[C@H]1NC(=O)C[C@H]2/C=C/CCSSC[C@@H](NC1=O)C(=O)N[C@H](Cc1cccc3ccccc13)C(=O)NCC(=O)O2 | Serine/threonine-protein kinase PAK 6 (PAK6, Homo sapiens, UniProt Q9NQU5) | enzyme activity, inhibitor | – | 10 µM | – | inhibition | -19.6% |
| COc1ccc(F)cc1S(=O)(=O)Nc1cnc2c(c1)C(=O)NCCO2 | aldosterone receptor | radioligand binding | – | 10 µM | – | inhibition | 1% |
| COc1ccccc1-c1n[nH]c2nc(NC3CCN(C(=O)Cc4ccc(F)cc4F)CC3)ncc12 | – | bead binding, competition bead pull-down, item: LINJ.25.2520 | Leishmania donovani extract | 10 µM | relative to: vehicle | relative abundance | 0.99 |
| O=C(N1CCCCC1)n1ccnn1 | sn-1-specific diacylglycerol lipase ABHD11 (Mus musculus, UniProt Q8K4F5) | serine hydrolase activity, inhibitor, competitive gel-based ABPP | mouse T-cell proteome | 1 µM, 30 min, 37 °C | – | inhibition | 50 to 95% |
| CN[C@@H]1[C@H](O)[C@H](NC)[C@H]2O[C@]3(O)[C@H](O[C@@H]2[C@H]1O)O[C@H](C)C[C@H]3NC(=O)Cc1ccc(Cl)cn1 | Histamine H3 receptor (HRH3, Homo sapiens, UniProt Q9Y5N1) | ligand displacement, radioligand | – | 10 µM | – | inhibition | -12% |
| O=C(O)c1ccccc1/C=N/Nc1nc(-c2ccccc2Cl)cs1 | Cyclin-dependent kinase 6, with cyclin D1 (CDK6, Homo sapiens, UniProt Q00534) | enzyme activity, inhibitor | – | 1 µM | – | inhibition | -3.3% |
| CC(C)(C)C(=O)OCOP(=O)(OCOC(=O)C(C)(C)C)C1CCCN(O)C1=O (stereo not shown) | SF-268 | – | – | – | – | TGI | 20.2 µM |
| Cc1cc(-c2ccc3ccccc3c2)nnc1NCCN1CCN(C)CC1 | ATP-binding cassette sub-family C member 2 (ABCC2, Homo sapiens, UniProt Q92887) | transport | – | concentration not given | – | inhibition | negative |
| CC(=O)NC[C@@H]1[C@@H](O)C[C@H]2[C@H](O)C[C@@H](CO)N12 | Spodoptera litura β-N-acetylglucosaminidase | – | crude enzyme | 1.71 µM, run 2, with: p-nitrophenyl GlcNAc | – | inhibition | 81.4% |
| Cc1cc(OCC(=O)NCCNC(=O)c2cccc(COc3ccccc3C(N)=O)c2)c2c3c(c(=O)oc2c1)CCC3 | Poly [ADP-ribose] polymerase 2 (PARP2, Homo sapiens, UniProt Q9UGN5) | enzyme activity, inhibitor | – | 5 nM | – | inhibition | 8% |
| CCCCCCCCCCCCCCCCCC(=O)NC[C@H]1CC[C@H](C(=O)N[C@@H](CCC(=O)NCCCOCCOCCOCCCNC(=O)COCC(=O)N[C@@H](Cc2ccc(O)cc2)C(=O)NC(C)(Cc2ccccc2)C(=O)N[C@@H](CC(C)C)C(=O)N[C@@H](CCCC)C(=O)N[C@@H](CCCNC(=N)N)C(=O)N2CCC[C@H]2C(=O)N[C@@H](CCCNC(=N)NC)C(=O)N[C@@H](CC(N)=O)C(N)=O)C(=O)O)CC1 (stereo partly shown) | Neuropeptides B/W receptor type 1 (NPBWR1, Homo sapiens, UniProt P48145) | antagonist, DiscoverX GPCR panel | – | 1 µM | – | inhibition | 57% |
| CN(/N=C/c1ccccc1C(=O)O)c1nc(-c2ccccc2Cl)cs1 | Cyclin-dependent kinase 5, with p35 (CDK5, Homo sapiens, UniProt Q00535) | enzyme activity, inhibitor | – | 1 µM | – | inhibition | -5.71% |
| CN[C@@H]1[C@H](O)[C@H](NC)[C@H]2O[C@]3(O)[C@H](O[C@@H]2[C@H]1O)O[C@H](C)C[C@H]3NC(=O)Cc1cc(Cl)ccn1 | Neuropeptide Y receptor type 2 (NPY2R, Homo sapiens, UniProt P49146) | ligand displacement, radioligand | – | 10 µM | – | inhibition | -1% |
| O=C1NC2(CC2)COc2ncc(F)cc2[C@H]2COCCN2c2ccn3ncc1c3n2 | – | – | Sprague-Dawley rat, male, blood | oral, 2.5 mg/kg/day, end of treatment, 4-week repeated-dose toxicity | relative to: red blood cells | reticulocytes | 2.58 ± 3.07% |
| O=C(CN1CN(c2ccccc2)C2(CCN(C(=O)c3cnc4[nH]ncc4c3)CC2)C1=O)NCC(F)(F)F | Casein kinase I isoform gamma-3 (CSNK1G3, Homo sapiens, UniProt Q9Y6M4) | inhibitor | – | concentration not given | – | inhibition | < 50% |
| CCN(CC)CCO.O=C(O)C(Cl)Cl | Chenopodium album | herbicidal activity | – | 15 mg/mL, 21 days, post-emergence greenhouse | – | inhibition | 43% |
| CN(C)[C@H]1C[C@@]23CC[C@@]4(O2)C(=CC[C@]2(C)[C@@H](c5ccc6ccncc6c5)CC[C@H]24)C=C3[C@@H](O)[C@@H]1O | Cyclin-dependent kinase 6 (CDK6, Homo sapiens, UniProt Q00534) | ATP probe labelling, inhibitor, KiNativ profiling | – | 0.1 µM | – | inhibition | 6.2% |
| Cc1cc(C(=O)Nc2nc3cccc(C)c3n2[C@H]2CCCCN(C(=O)/C=C/CN(C)C)C2)ccn1 | Trypanosoma brucei | – | STIB795, mouse acute HAT model | oral, 25 mg/kg once daily for 4 days, day 17 | relative to: mice | survival | 66.7% |
| Cc1ccc(-n2cc(CCS(=O)(=O)F)nn2)cc1 | BCHE | enzyme activity, inhibitor, Ellman's method | horse serum BuChE | 20 µM | – | inhibition | 32.5 ± 2.1% |
| C[C@H](NCc1ccc(-c2ccc(C(F)(F)F)cc2)cc1)C(N)=O | Mitogen-activated protein kinase 8 (MAPK8, Homo sapiens, UniProt P45983) | cell-free assay, competition with immobilised ligand | – | 1 µM | – | inhibition | 14% |
| CS(C)(=O)=Nc1ccc(-c2ccc(-c3nc4cc(O[C@@H]5CO[C@H]6[C@@H]5OC[C@H]6O)[nH]c4cc3F)cc2)cc1 | Mitogen-activated protein kinase kinase kinase 7 (MAP3K7, Homo sapiens, UniProt O43318) | enzyme activity, inhibitor | – | 10 µM | – | inhibition | 4% |
| Cc1ccc2c(n1)c(-c1cccc(S(C)(=O)=O)c1)c(C)n2C/C(F)=C/CN | B2 bradykinin receptor (BDKRB2, Homo sapiens, UniProt P30411) | ligand displacement, radioligand | – | 10 µM | – | inhibition | 3% |
| CC[C@H](C)[C@H](NC(=O)[C@H](CO)NC(=O)[C@H](Cc1ccc(O)cc1)NC(=O)[C@H](Cc1ccc(O)cc1)NC(=O)[C@H](CC(N)=O)NC(=O)CNC(=O)[C@H](CO)NC(=O)[C@H](Cc1ccc(O)cc1)NC(=O)[C@H](CO)NC(=O)[C@H](CO)NC(=O)[C@H](CC(N)=O)NC(=O)COCCOCCNC(=O)CN1CCN(CC(=O)O)CCN(CC(=O)O)CCN(CC(=O)O)CC1)C(=O)N[C@@H](CC(C)C)C(N)=O [copper-64 labelled] | – | dynamic PET | KPC mouse Ptf1a-CreER tdTomato, pancreas | intravenous, dose not given, 1.6 min, 84 d after tamoxifen | – | tissue uptake | 15 %ID/mL |
| COc1ccccc1-c1n[nH]c2nc(N[C@H]3CC[C@H](NS(=O)(=O)CC(C)C)CC3)ncc12 | – | bead binding, competition bead pull-down, item: LINJ.34.3890 | Leishmania donovani extract | 10 µM | relative to: vehicle | relative abundance | 1.11 |
| O=C1NC(=O)c2c1c1cc(F)c[n+]3c1c1c2c2cc(O)ccc2[n]1[Ru-4]312([N]=C=S)[S+]3CC[S+]1CC[S+]2CC3 (stereo not shown) | Mitogen-activated protein kinase 1 (MAPK1, Homo sapiens, UniProt P28482) | enzyme activity | – | 100 nM, human enzyme, with: 10 µM ATP | relative to: untreated | remaining activity | 7% |

Repeated from above:
| SMILES | tested on | test | test system | conditions | how to read | measurement | result |
| --- | --- | --- | --- | --- | --- | --- | --- |
| Cc1cc(OCC(=O)NCCNC(=O)c2cccc(COc3ccccc3C(N)=O)c2)c2c3c(c(=O)oc2c1)CCC3 | Poly [ADP-ribose] polymerase 2 (PARP2, Homo sapiens, UniProt Q9UGN5) | enzyme activity, inhibitor | – | 5 nM | – | inhibition | 8% |
| Cc1ccc(-n2cc(CCS(=O)(=O)F)nn2)cc1 | BCHE | enzyme activity, inhibitor, Ellman's method | horse serum BuChE | 20 µM | – | inhibition | 32.5 ± 2.1% |
| CN[C@@H]1[C@H](O)[C@H](NC)[C@H]2O[C@]3(O)[C@H](O[C@@H]2[C@H]1O)O[C@H](C)C[C@H]3NC(=O)Cc1cc(Cl)ccn1 | Neuropeptide Y receptor type 2 (NPY2R, Homo sapiens, UniProt P49146) | ligand displacement, radioligand | – | 10 µM | – | inhibition | -1% |
